# Measured values collected from several papers.
# Lines come from different studies, so protocols differ. ± marks the error that the study gave.
# APP: Amyloid-beta precursor protein (APP, Homo sapiens, UniProt P05067)
# Genome polyprotein NS2B-NS3 protease: Genome polyprotein, NS2B-NS3 protease (West Nile virus, UniProt P06935)
# Sequence of UniProt P06935 (whole entry, looked up): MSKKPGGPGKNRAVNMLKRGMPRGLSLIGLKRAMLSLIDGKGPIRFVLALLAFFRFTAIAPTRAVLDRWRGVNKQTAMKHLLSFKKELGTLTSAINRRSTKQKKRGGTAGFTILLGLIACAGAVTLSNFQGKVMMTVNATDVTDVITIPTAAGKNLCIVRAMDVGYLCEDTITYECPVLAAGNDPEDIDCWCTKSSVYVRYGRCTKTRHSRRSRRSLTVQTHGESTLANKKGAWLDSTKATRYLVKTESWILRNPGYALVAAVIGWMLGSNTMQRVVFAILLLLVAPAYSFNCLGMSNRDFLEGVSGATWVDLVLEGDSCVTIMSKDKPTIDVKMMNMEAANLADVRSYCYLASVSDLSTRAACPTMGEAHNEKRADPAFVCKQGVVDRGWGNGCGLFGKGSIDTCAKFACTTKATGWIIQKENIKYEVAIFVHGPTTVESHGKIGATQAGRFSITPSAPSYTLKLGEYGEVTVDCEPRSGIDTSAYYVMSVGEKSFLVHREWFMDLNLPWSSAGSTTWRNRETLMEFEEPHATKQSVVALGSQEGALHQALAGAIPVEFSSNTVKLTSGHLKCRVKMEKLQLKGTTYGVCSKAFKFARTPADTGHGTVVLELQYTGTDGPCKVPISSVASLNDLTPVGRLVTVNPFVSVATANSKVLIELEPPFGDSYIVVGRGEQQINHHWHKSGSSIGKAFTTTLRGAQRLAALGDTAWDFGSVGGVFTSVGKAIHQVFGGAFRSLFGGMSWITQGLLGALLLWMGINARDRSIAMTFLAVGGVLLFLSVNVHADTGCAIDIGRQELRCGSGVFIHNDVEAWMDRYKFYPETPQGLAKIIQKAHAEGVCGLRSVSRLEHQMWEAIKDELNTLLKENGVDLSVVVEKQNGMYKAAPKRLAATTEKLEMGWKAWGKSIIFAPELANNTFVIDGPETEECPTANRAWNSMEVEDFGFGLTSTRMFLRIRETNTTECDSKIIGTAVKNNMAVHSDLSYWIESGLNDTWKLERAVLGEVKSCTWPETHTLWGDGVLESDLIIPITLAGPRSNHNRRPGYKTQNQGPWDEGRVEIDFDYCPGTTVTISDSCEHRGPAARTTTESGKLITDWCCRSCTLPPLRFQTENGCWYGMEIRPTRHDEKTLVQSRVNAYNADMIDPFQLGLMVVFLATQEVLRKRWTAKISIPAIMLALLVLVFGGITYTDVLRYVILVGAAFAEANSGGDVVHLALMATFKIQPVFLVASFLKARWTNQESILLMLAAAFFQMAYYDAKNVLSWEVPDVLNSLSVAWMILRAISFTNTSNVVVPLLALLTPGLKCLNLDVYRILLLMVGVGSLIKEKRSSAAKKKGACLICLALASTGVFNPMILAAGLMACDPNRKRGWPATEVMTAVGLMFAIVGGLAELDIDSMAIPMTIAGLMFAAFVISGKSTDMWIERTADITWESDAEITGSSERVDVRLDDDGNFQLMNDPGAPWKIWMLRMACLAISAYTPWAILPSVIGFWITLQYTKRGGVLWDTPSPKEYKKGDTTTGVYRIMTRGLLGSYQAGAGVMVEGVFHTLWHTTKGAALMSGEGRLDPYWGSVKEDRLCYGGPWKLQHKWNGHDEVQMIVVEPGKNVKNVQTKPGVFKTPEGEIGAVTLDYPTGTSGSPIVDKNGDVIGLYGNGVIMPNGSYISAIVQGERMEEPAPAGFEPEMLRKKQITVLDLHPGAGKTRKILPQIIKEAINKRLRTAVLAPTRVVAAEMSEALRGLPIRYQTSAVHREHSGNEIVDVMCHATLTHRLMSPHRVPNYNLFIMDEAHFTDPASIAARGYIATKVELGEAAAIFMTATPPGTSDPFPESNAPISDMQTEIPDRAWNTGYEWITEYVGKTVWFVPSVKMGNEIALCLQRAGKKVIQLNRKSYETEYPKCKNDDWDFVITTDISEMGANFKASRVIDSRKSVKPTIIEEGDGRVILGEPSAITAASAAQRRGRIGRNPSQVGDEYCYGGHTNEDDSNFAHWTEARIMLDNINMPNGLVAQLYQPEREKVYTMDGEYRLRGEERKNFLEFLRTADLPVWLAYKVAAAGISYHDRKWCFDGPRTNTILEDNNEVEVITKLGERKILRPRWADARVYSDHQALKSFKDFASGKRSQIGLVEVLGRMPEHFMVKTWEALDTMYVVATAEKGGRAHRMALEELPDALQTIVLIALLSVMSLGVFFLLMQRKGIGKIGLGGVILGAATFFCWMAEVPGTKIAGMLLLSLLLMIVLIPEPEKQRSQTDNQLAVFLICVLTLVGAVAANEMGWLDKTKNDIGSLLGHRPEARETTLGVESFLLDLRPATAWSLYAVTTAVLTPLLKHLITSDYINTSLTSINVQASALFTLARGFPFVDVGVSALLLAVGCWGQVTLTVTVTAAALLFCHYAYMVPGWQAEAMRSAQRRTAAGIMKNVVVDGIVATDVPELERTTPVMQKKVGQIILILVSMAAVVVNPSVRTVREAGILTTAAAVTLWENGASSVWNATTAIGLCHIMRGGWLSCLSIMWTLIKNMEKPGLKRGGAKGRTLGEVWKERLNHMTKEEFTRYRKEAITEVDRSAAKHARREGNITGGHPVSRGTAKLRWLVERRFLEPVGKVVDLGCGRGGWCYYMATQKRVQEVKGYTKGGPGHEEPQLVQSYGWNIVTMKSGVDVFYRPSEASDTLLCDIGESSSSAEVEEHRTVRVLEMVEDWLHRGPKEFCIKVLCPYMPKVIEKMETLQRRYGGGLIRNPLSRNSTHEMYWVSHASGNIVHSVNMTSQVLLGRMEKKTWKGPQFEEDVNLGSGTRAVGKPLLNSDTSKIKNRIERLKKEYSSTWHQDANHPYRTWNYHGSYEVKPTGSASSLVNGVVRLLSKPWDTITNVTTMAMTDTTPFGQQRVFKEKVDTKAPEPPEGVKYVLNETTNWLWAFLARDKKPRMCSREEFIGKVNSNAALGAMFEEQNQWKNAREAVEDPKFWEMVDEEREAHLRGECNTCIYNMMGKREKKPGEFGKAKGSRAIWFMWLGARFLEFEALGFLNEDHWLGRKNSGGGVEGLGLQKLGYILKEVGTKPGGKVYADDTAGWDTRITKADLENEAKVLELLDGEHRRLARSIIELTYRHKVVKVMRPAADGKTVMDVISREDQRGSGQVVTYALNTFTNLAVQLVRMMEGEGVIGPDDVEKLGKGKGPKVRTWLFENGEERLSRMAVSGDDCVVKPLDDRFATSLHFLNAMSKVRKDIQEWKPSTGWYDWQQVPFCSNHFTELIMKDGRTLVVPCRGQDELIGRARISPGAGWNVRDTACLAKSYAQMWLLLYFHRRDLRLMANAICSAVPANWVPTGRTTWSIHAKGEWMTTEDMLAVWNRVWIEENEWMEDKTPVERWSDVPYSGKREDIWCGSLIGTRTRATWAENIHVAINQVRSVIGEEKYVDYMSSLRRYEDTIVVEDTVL
# Tripartite terminase subunit 3 C-terminal nuclease domain: Tripartite terminase subunit 3, C-terminal nuclease domain (Human betaherpesvirus 5, UniProt P16732)
# Sequence of UniProt P16732 (whole entry, looked up): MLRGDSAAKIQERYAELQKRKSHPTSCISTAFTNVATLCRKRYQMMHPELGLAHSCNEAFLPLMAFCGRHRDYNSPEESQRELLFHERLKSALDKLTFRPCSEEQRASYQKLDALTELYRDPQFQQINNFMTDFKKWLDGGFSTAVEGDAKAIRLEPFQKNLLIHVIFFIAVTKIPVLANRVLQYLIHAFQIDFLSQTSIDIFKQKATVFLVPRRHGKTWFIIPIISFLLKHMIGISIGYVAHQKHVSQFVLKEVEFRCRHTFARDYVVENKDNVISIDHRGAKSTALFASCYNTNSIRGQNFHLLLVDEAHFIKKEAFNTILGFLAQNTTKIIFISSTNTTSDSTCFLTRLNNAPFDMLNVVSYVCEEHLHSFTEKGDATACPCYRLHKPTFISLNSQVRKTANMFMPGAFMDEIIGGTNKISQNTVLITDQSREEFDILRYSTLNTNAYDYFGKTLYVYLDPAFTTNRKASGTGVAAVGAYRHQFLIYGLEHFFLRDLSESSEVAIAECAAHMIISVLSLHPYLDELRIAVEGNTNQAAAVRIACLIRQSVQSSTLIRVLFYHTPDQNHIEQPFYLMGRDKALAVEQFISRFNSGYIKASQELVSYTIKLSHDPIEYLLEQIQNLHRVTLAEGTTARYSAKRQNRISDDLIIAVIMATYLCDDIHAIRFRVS
# Sequence of UniProt P50613 (whole entry, looked up): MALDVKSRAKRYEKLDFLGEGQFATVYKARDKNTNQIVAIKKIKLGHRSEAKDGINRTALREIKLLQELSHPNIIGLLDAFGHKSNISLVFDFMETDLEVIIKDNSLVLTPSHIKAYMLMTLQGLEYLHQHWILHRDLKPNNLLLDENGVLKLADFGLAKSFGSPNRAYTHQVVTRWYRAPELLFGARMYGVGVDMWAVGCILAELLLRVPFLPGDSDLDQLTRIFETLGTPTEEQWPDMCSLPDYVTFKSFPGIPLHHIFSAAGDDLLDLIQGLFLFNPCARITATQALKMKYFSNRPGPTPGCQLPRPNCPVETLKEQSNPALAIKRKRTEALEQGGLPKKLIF
# Sequence of UniProt P35372 (whole entry, looked up): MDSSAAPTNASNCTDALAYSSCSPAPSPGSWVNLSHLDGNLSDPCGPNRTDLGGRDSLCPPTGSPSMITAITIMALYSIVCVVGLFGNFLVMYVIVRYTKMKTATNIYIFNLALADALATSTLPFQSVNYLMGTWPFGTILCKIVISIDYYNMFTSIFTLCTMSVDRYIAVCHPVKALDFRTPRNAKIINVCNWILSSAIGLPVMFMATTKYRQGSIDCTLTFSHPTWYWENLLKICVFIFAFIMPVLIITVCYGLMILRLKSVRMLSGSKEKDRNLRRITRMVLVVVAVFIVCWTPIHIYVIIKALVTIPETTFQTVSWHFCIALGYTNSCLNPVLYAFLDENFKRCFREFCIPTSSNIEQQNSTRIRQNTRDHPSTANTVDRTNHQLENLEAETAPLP
# Sequence of UniProt Q5U3Y7 (whole entry, looked up): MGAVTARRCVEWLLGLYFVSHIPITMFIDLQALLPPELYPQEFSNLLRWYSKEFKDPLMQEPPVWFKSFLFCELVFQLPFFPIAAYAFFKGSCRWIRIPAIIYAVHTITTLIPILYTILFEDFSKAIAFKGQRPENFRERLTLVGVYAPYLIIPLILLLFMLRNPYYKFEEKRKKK
Compound,tested on,assay,test system,conditions,how to read,quantity,result
COc1ccc(S(=O)(=O)Oc2ccc3c(c2)Oc2nc4c(c(N)c2C3c2cccc(OC)c2)CCCC4)cc1 (stereo not drawn),APP,"Aβ42 self-aggregation, inhibitor, thioflavin T fluorescence",,0.01 µM,,inhibition,2.6%
CCCN(CCC)CCNC(=O)c1cc(Sc2ccc(Cl)cc2)nc2ccccc12,Vero-E6,CellTiter-Glo ATP,,"72 h, first round 5-point","reference: DMSO 0%, hyamine -100%, more negative, more toxic",maximum response,-3.06%
Nc1c2c(nc3c1C(c1cccc([N+](=O)[O-])c1)c1ccc(OS(=O)(=O)c4ccc(F)cc4)cc1O3)CCCC2 (stereo not drawn),APP,"Aβ42 self-aggregation, inhibitor, thioflavin T fluorescence",,0.01 µM,,inhibition,3.5%
O=C(Nc1ccc2c(c1)B(O)OC2)c1ccc(OCc2ccc(Cl)cc2)cc1,Genome polyprotein NS2B-NS3 protease,"enzyme activity, FRET",,"50 µM, together with: substrate 50 µM",,inhibition,≤ 10%
CN(C)C1(CNC(=O)c2ccc3c(c2)CCN3C(=O)c2ccccc2)CCOCC1,"SLC6A9 (Homo sapiens, UniProt P48067)","transport current, inhibitor, two-electrode voltage clamp",Xenopus laevis oocytes,10 µM,,inhibition,~6%
O=c1cc(-c2ccccc2)oc2c1ccc1occc12,"CDK7 (Homo sapiens, UniProt P50613)","enzyme activity, inhibitor",,10 µM,,inhibition,54%
COc1ccc(CCNC(=O)c2cc(Nc3ccccc3)nc3ccccc23)cc1OC,Vero-E6,CellTiter-Glo ATP,,"concentration not given, 72 h, retest 8-point duplicates","reference: DMSO 0%, hyamine -100%, more negative, more toxic",cytotoxicity efficacy,-11.8%
O=C(Nc1cnccc1Cl)N1CCN(Cc2ccc3c(c2)OC(F)(F)O3)CC1,"Tmem97 (Rattus norvegicus, UniProt Q5U3Y7)","radioligand binding, inhibitor",,"50 µM, rat, together with: [3H]ifenprodil",,inhibition,69%
CC(=O)N[C@H]1[C@H]([C@H](O)[C@H](O)CO)OC(O[C@H]2[C@@H](O)[C@@H](CO)O[C@@H](Oc3ccc([N+](=O)[O-])cc3)[C@@H]2O)(C(=O)O)C[C@@H]1O (stereo partly drawn),"Sialidase A (nanA, Streptococcus pneumoniae, UniProt P62575)",,,"8 µM, pH 6",,inhibition,17.1 ± 6.1%
Nc1ccncc1,"Glutamate receptor 2 (Homo sapiens, UniProt P42262)","ion current, negative allosteric modulator, automated patch clamp",HEK293,10 µM,,inhibition,13%
Cc1c(C(=O)O)sc2[nH]c(=O)n(O)c(=O)c12,Tripartite terminase subunit 3 C-terminal nuclease domain,"endonuclease activity, ELISA",,"20 µM, together with: dsDNA",,inhibition,91%
CN(C(=O)n1cnc(-c2ccc[n+]([O-])c2)c1)C1CCCCC1,"MC3R (Homo sapiens, UniProt P41968)",radioligand binding,,50 µM,,inhibition,2%
CN1CCN(c2cc(-c3ccncc3)c(-c3ccc4ccccc4c3)nn2)CC1,"CHRM5 (Homo sapiens, UniProt P08912)","antagonist, FLIPR",,10 µM,,inhibition,16.7%
O=C(Nc1ccc2c(c1)B(O)OC2)c1cccc(OCc2c(Cl)cccc2Cl)c1,Genome polyprotein NS2B-NS3 protease,"enzyme activity, FRET",,"50 µM, together with: substrate 50 µM",,inhibition,20 ± 7%
O=c1[nH]c2c3c(sc2c(=O)n1O)CCCC3,Tripartite terminase subunit 3 C-terminal nuclease domain,"endonuclease activity, ELISA",,"20 µM, together with: dsDNA",,inhibition,82%
O=C(Nc1cccnn1)N1CCC(=Cc2cccc(Oc3ccc(C(F)(F)F)cn3)c2)CC1,"OPRM1 (Homo sapiens, UniProt P35372)","radioligand binding, inhibitor",,"10 µM, human, together with: [3H]diprenorphine",,inhibition,23%
C#Cc1n[nH]c2c(-c3cn([C@@H](C)c4ccccn4)c(=O)[nH]c3=O)cc(F)cc12,"Cyclin-dependent kinase 7, with cyclin H, MAT1 (CDK7, Homo sapiens, UniProt P50613)","kinase activity, inhibitor",,100 nM,,inhibition,6.9%
COc1ccc(N2C(=O)N(c3c(C)cccc3Cl)Cc3cnc(Nc4ccc(C5CCN(C)CC5)cc4OC)nc32)nc1,"STK10 (Homo sapiens, UniProt O94804)","kinase activity, inhibitor",,"0.5 µM, kinase LOK",,inhibition,44%
COc1cc(Nc2ncc(F)c(Nc3ccc4c(n3)NC(=O)C(C)(C)O4)n2)cc(OC)c1OC,"PRKCQ (Homo sapiens, UniProt Q04759)",KINOMEscan,,10 µM,,inhibition,30%
OB1OCc2cc(F)ccc21,Genome polyprotein NS2B-NS3 protease,"enzyme activity, FRET",,"50 µM, together with: substrate 50 µM",,inhibition,≤ 10%
C[C@H]1CN(c2n[nH]c3nc(N[C@H]4CC[C@H](NS(=O)(=O)CCC(F)(F)F)CC4)ncc23)CCO1,"JAK2 (Homo sapiens, UniProt O60674)","inhibitor, Kinobeads competition profiling",,20 µM,reference: vehicle,relative abundance,1.14
